Published values collected from several papers.
Protocols differ between the studies behind these lines.
Target: Serine/threonine-protein kinase PAK 6 (PAK6, Homo sapiens, UniProt Q9NQU5)
Chain of UniProt Q9NQU5 (whole entry, looked up): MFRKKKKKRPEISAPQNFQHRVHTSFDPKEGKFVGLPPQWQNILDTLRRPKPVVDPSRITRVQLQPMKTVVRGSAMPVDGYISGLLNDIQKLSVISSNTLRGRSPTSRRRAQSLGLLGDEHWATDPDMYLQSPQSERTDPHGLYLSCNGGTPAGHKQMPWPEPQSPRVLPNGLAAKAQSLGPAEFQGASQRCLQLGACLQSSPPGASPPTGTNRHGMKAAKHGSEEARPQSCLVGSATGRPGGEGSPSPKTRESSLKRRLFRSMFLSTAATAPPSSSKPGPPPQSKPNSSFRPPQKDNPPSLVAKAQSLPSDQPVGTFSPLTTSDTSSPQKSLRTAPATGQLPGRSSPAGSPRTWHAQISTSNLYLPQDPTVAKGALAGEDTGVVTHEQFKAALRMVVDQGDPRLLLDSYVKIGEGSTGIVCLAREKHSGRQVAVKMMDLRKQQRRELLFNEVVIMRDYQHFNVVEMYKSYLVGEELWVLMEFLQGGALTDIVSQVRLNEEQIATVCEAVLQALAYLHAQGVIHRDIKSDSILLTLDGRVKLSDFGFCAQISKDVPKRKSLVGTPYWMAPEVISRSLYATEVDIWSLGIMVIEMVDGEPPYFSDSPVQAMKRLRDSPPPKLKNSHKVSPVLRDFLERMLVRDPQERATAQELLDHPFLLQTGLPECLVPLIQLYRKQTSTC

Structure (SMILES) = COCCNc1nc2ccc(C#CC3(O)CCCCC3)cc2n1-c1ccnc(N)n1; test = enzyme activity, inhibitor, Z'-LYTE; conditions = 1 µM; scale = baseline: no-inhibitor control; endpoint = remaining kinase activity; result = 49.9%
Structure (SMILES) = C=CC(=O)N1CCC(COCC(=O)N2CCN(c3nc(-c4cnc(N)nc4C(F)F)nc(N4CCOC[C@@H]4C)n3)CC2)CC1; test = KINOMEscan; conditions = 1 µM; endpoint = remaining binding; result = 100%
Structure (SMILES) = Cc1cc(Nc2cc(N3CCN(C)CC3)nc(Sc3ccc(NC(=O)C4CC4)cc3)n2)[nH]n1; test = kinase activity, KinaseProfiler; conditions = 0.03 µM, species human; scale = baseline: control; endpoint = remaining activity; result = 107%
Structure (SMILES) = CNc1ncc2c(/C=C/C(=O)N3CCC(OC)CC3)nn(Cc3cccc(C(F)(F)F)c3)c2n1; test = kinase activity, inhibitor; conditions = 1 µM; scale = baseline: untreated control; endpoint = remaining activity; result = 95%
Structure (SMILES) = C=CC(=O)N1CCC(C(=O)NCC(=O)N2CCN(c3nc(-c4cnc(N)nc4C(F)F)nc(N4CCOCC4)n3)CC2)CC1; test = KINOMEscan; conditions = 1 µM; endpoint = remaining binding; result = 100%
Structure (SMILES) = COc1cc(F)ccc1-c1ncnc(Nc2cccc(C[S@](C)(=N)=O)c2)n1; test = kinase activity; conditions = 10 µM, together with: 10 µM ATP; endpoint = remaining activity; result = 100%
Structure (SMILES) = CN1CC(Oc2cnc(C#N)cc2-c2ccn3nc(NC(=O)C4CC4)cc3c2)C1; test = inhibitor, KinaseProfiler panel; conditions = 1 µM; endpoint = inhibition; result = -19%
Structure (SMILES) = Nc1ncc2c(n1)-c1c([nH]c3ccc(-c4ccc(F)cc4)cc13)CCC2; test = kinase activity, inhibitor, radiometric; conditions = 1 µM, together with: ATP at Km; endpoint = remaining activity; result = 97%
Structure (SMILES) = O=C1NC(=O)/C(=C/c2ccc(-c3ccc(F)cc3O)o2)S1; test = enzyme activity; conditions = 10 µM; endpoint = remaining activity; result = 71%

A few entries again:
Structure (SMILES) = Cc1cc(Nc2cc(N3CCN(C)CC3)nc(Sc3ccc(NC(=O)C4CC4)cc3)n2)[nH]n1; test = kinase activity, KinaseProfiler; conditions = 0.03 µM, species human; scale = baseline: control; endpoint = remaining activity; result = 107%
